Experimental data of several laboratories.
A part holds a random share of what one study measured.

Study 1
Target: Interferon regulatory factor 5, full length, phosphomimetic (IRF5, Homo sapiens, UniProt Q13568-2, residues 1-514, S451D/S453D/S456D/S462D)
Technique: protein-binding microarray
Form: double-stranded DNA, one strand shown
Sample: in vitro
Tested at: 940 nM top
Notes: 60-bp whole probe
Added: salmon DNA 0.4 mg/ml
Relative to: random background probes
Direction: higher = stronger binding
Shared flanks, not repeated: GCCTAGCAC … GTGCTAGGTCTTGATTCGCTTGACGCTGCTG
Strand | fitted relative affinity
GACGGAATCGGTATCGGGAC | 1.77 z-score
CACCGTCTTATTAAAAAACA | 0.251 z-score
CAGCCTCTGAGCAGCTCGGC | -0.693 z-score
TTAGGTATCGGACTGGGTTT | 3.45 z-score
TTAGGTCTCGCTCTCGGTTA | 3.84 z-score

Study 2
Target: Protein C-ets-1 (ETS1, Homo sapiens, UniProt P14921, residues 1-441, full length assumed)
Technique: protein-binding microarray
Form: double-stranded DNA, one strand shown
Sample: in vitro
Tested at: not given
Notes: k-mer, scored over probes, only values ≥0.25
Direction: higher = stronger binding
Residues (chain): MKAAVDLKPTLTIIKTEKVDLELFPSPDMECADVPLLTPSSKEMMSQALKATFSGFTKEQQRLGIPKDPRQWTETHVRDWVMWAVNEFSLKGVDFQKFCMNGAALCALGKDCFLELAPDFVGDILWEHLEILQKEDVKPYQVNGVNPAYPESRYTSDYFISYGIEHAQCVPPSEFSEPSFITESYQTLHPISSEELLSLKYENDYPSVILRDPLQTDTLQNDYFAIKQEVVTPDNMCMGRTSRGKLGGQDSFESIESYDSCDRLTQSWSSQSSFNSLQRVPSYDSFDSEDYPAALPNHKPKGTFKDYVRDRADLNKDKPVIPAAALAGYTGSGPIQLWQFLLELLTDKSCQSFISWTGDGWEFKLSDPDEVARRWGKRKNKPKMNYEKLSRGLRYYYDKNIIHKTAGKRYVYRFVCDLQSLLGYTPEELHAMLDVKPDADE
Strand | E-score
CCGCCCGC | 0.263
AACGGGAA | 0.359
ACGGATAC | 0.387

Study 3
Target: Histone acetyltransferase KAT6A, both winged helices, GST fusion (KAT6A, Homo sapiens, UniProt Q92794, residues 1-181)
Technique: protein binding microarray
Form: double-stranded DNA, one strand shown
Sample: in vitro
Tested at: not given
Notes: 8-mer, flanks averaged, mean of 2 arrays, mostly near background
Relative to: not given
Direction: higher = stronger binding
Target sequence (chain): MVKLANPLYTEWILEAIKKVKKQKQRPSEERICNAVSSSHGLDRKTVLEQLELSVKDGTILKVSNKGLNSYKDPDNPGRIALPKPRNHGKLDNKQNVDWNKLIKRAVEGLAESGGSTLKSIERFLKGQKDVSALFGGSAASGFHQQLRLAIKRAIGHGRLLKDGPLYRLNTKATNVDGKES
Strand | E-score
ACTTTTAA | -0.049
ATTTCCAA | -0.162
AGCGTTCG | 0.0196
TGACCGAA | 0.1

Single results of other studies
Molecule | target | assay | test system | conditions | how to read | measurement | result
PhoQ, residues 284 288 289 292 302 303 GLASVI | PhoP, residues 12 14 15 18 19 VQALL (Escherichia coli, UniProt P23836) | Sort-seq, refers to: YFP reporter | E. coli | PhoQ-PhoP variant library, added: 10 µM Mg2+ | relative to: high Mg2+ state, higher = stronger signaling | fold induction | 11.4
